Results of several laboratories.
Lines come from different studies, so protocols differ. ± marks the error that the study gave.
B1: UGT1A9 (Homo sapiens, UniProt O60656); chain GKLLVVPMDGSHWFTMRSVVEKLILRGHEVVVVMPEVSWQLGRSLNCTVKTYSTSYTLEDLDREFKAFAHAQWKAQVRSIYSLLMGSYNDIFDLFFSNCRSLFKDKKLVEYLKESSFDAVFLDPFDNCGLIVAKYFSLPSVVFARGILCHYLEEGAQCPAPLSYVPRILLGFSDAMTFKERVRNHIMHLEEHLLCHRFFKNALEIASEILQTPVTEYDLYSHTSIWLLRTDFVLDYPKPVMPNMIFIGGINCHQGKPLPMEFEAYINASGEHGIVVFSLGSMVSEIPEKKAMAIADALGKIPQTVLWRYTGTRPSNLANNTILVKWLPQNDLLGHPMTRAFITHAGSHGVYESICNGVPMVMMPLFGDQMDNAKRMETKGAGVTLNVLEMTSEDLENALKAVINDKSYKENIMRLSSLHKDRPVEPLDLAVFWVEFVMRHKGAPHLRPAAHDLTWYQYHSLDVIGFLLAVVLTVAFITFKCCAYGYRKCLGKKGRVKKAHKSKTH

`CC(C)(C)OCC1NC(=O)C(C(=O)NC(C(=O)NC2C(=O)N3C2SC(C)(C)C3C(=O)O)c2ccccc2)=C1O` (stereo not drawn) has an MIC of 50 µg/mL (Escherichia coli; broth microdilution; BW25113, Mueller-Hinton broth; 18 h, without clavulanic acid).
The MIC of `EVEPSDTIENVKAKIQ` is reported as > 100 µM (Bacillus megaterium; peptide, 899, Luria broth; overnight, 37 °C).
`CCOC(=O)c1c(N)csc1-c1cn(-c2ccccc2)nc1-c1ccc(C)cc1` has an MIC of 0.24 ± 0.1 µg/mL (Acinetobacter baumannii; broth microdilution; clinical urinary isolate; compound gamma-irradiated 5 kGy).
For `CN1CC(O)=C(C(=O)NC(C(=O)NC2C(=O)N3C2SC(C)(C)C3C(=O)O)c2ccccc2)C1=O` (stereo not drawn), the MIC was 50 µg/mL (Escherichia coli; broth microdilution; BW25113, Mueller-Hinton broth; added: CCCP 50 µg/mL).
With `pneumocandin B0` the MIC was 12.8 µg/mL (Candida parapsilosis; broth microdilution, resazurin; ATCC 90018; 24 h, 35 °C).
`TPDYLMQLMNDKKLMSSAPNFSGIFNHLERLLDEEISRVRKDMYNDTLNGSTEK (Qki 14-67 C35S/L31A (Mus musculus, UniProt Q9QYS9))` gave a melting temperature of 62 °C (itself; CD thermal melting; 50 µM).
`C=C(C)[C@@H]1CC[C@]2(C)CC[C@]3(C)[C@H](CC[C@@H]4[C@@]5(C)CC[C@H](O)C(C)(C)[C@@H]5CC[C@]43C)[C@@H]12` gave an MIC of 500 µg/mL (Lodderomyces parapsilosis; microbial growth, broth dilution; ATCC22019; 48 h).
The MIC of `pneumocandin K` is reported as 12.8 µg/mL (Candida parapsilosis; broth microdilution, resazurin; ATCC 90018; 24 h, 35 °C).
With `N#Cc1ccc(COc2ccc(C#Cc3ccc(C(F)(F)[C@](O)(Cn4cnnn4)c4ccc(F)cc4F)nc3)cc2)cc1` the MIC was 0.25 µg/mL (Acanthamoeba polyphaga; cell growth, resazurin; 96 h, 28 °C).
With `CC1(C)SC2C(NC(=O)C(NC(=O)C3=C(O)CN(c4ccccc4)C3=O)c3ccccc3)C(=O)N2C1C(=O)O` (stereo not drawn) the MIC was 100 µg/mL (Escherichia coli; broth microdilution; BW25113, Mueller-Hinton broth).
`pneumocandin H` has an MIC of 3.2 µg/mL (Candida glabrata; broth microdilution, resazurin; ATCC 2001; 24 h, 35 °C).
For `N#CC(=Cc1ccccc1O)C1=NC(=O)C(=Cc2cn(-c3ccccc3)nc2-c2ccccc2)S1`, the MIC was 0.48 µg/mL (Acinetobacter baumannii; microbial growth, broth dilution).
`B1 (UGT1A9)` has a Vmax of 0.0022 µmol/min/mg (COc1ccc(-c2oc3ccc(OC)cc3c(=O)c2O)cc1; steady-state kinetics; pH 7.4, 37 °C).
`CC1(C)SC2C(NC(=O)C(NC(=O)C3=C(O)C4CCCN4C3=O)c3ccccc3)C(=O)N2C1C(=O)O` (stereo not drawn) has an MIC of 200 µg/mL (Escherichia coli; broth microdilution; BW25113, Mueller-Hinton broth; 18 h, without clavulanic acid).
`plantazolicin` gave an MIC of > 48 µM (Bacillus megaterium; 7A1; 12 h, 37 °C).

A few entries again:
`CC1(C)SC2C(NC(=O)C(NC(=O)C3=C(O)C4CCCN4C3=O)c3ccccc3)C(=O)N2C1C(=O)O` (stereo not drawn) has an MIC of 200 µg/mL (Escherichia coli; broth microdilution; BW25113, Mueller-Hinton broth; 18 h, without clavulanic acid).
